Experimental data from different studies.
Parts stem from different laboratories: compare values within a part only. Substitutions count along the parent as printed.

Sample 1
Target: Fragile X messenger ribonucleoprotein 1, C-terminal low-complexity region (Fmr1, Mus musculus, UniProt P35922)
Method: RNA Bind-n-Seq
Molecule type: RNA
Medium: in vitro
Concentration: 200 nM
Setting: whole 134-nt RNA, ends assumed
Added: 150 mM LiCl
Baseline: input library
Reading: higher = stronger binding
Library: 7-deaza-guanosine replaces G
Constant ends, left off below: GGGAGUUCUACAGUCCGACGAUC … UGGAAUUCUCGGGUGUCAAGG
Strand | log2 enrichment
UCAAGUCCUGUGCUACACAUCGUAUGUACCGAAUCGGGGCCGGGCCGGGCCGGGGAAAGUAUUAUGUUACGCCGUUCGGAUCUGCACUUC | 0.848
CCUGUGCUACACAUCGUAUGUACCGAAUCGGGAAAAAAAGGGAAAAAAAGGAAAAAAAGGAAAGUAUUAUGUUACGCCGUUCGGAUCUGC | -0.231
AAUUCUCAUUUCUCGACAUAAAGCCUUGUCUAAAGUGAGAUGUUUUCCAGGUCAUACAUAGGUUUCUCCCUGGGGUAAUUGGAAGUUCUU | -2.66
AGUCCUGUGCUACACAUCGUAUGUACCGAAUCGGGGUUUUUGGGGUUUGGGGUGGGGAAAGUAUUAUGUUACGCCGUUCGGAUCUGCACU | -1.07
GCAGGAAGUAAAAACAAAUGGAAAUGCUUCGGAUAGUGGCAGGGGUGCGGGUUGCUAAGGAAAGGGUGGGAUGGGAGUGGGUAAAGAGUU | 1.55
GUCCUGUGCUACACAUCGUAUGUACCGAAUCAAAUUUUUAAAUUUUUUUAAACCCAAAAAAGUAUUAUGUUACGCCGUUCGGAUCUGCAC | -0.981
AGUCCUGUGCUACACAUCGUAUGUACCGAAUCGGGAAAAGGGAAAAGGGGAAAAGGGGAAAGUAUUAUGUUACGCCGUUCGGAUCUGCAC | 0.176
GCAGGAAGUAAAAACAAAUGGAAAUGCUUCGGAUAGUGGCAGGGGUGGGGGUUGCUAAGGAAAGGGUGGGAUGGGAGUAGGUAAAGAGUU | 1.57
AGUCCUGUGCUACACAUCGUAUGUACCGAAUCGGGUGGGUUUUUGGGAAAAAAAGGGAAAGUAUUAUGUUACGCCGUUCGGAUCUGCACU | -1.48
CAAGUCCUGUGCUACACAUCGUAUGUACCGAAUCGGGAAAGGGGAAAGGGGAAAGGAAAGUAUUAUGUUACGCCGUUCGGAUCUGCACUU | -1.09
UCCUGUGCUACACAUCGUAUGUACCGAAUCGGAAAAAAAGGUUUUUUUGGUUUUUUUGGAAAGUAUUAUGUUACGCCGUUCGGAUCUGCA | -2.64

Sample 2
Target: RNA binding protein fox-1 homolog 2, RRM domain, GST-SBP tag (RBFOX2, Homo sapiens, UniProt O43251-10, residues 100-194)
Method: RNA Bind-n-Seq
Molecule type: RNA
Medium: in vitro
Concentration: 365 nM
Setting: natural RNA segment, single round, ends assumed
Baseline: no-protein control
Reading: higher = stronger binding
Constant ends, left off below: GGGAGUUCUACAGUCCGACGAUC … UGGAAUUCUCGGGUGCCAA
Target sequence (chain): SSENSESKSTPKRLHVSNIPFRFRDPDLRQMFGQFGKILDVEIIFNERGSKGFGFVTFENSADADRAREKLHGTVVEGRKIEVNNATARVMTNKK
Strand | RBNS enrichment (R)
AAUUUCCUUUGACUUUUGUGGCGCAUAGGAGUCCGUGUUUAUCUUCUCGAUUUUGUUCUGAGGGUUUAUGAACUCAUUGAGAACCAGGAUUCCUUGAGACUCUUUAGCAU | 0.511
CUGGCCUUUCGAGCUUCAGAGAUGGGAGUCUGAUGGCAGUGUCCUGCUUGGAGAAGGCCCAGGGGUGUCCUCAUGGGGACUUCUGGAACAGACAGCCUUCUGACCCCUGU | 0.209
UAAUCCCCAUAUUCUUCUACUGCCCUUAACUCUGGUAUACACCAAAAAGAAAUCUUUACUUUCCUUGUUUUAUCAUUAUAAAAAUAAAGUAUUUUGCUAGUAUGGAAACA | 0.755
CUAAUCCUAGUCCUUUUCCUGAGGUAGAUUUUAAACAGUAUUUUUAAAGUCCAAGACAUAGGUUUUUCUAGUUUAUUCCCUGAAGAUCUGUUGCCACAGUUGGGAGAUUU | 0.33
CCAGGGGUCCUACUCGCUUCCCCCCUGCUCAUACCUUGCCUAUGGAGACAUGAGAGGGCAGAAUCCUGCCCCCAGCCCUGGGCUGCUUUCGGGGGUCGGGGGAGGGCUCU | 0.935
UGUUUAUAAACUGAAAAGGUACCGGGUCUUACAGCAUUUUAUAUAUCACACCUUUACAGAAUAACAUGAUGGCAAUAUACAUACGUGAUAUUGUUAGGUGGAAUAACUUA | 1.33
GGGAAAUGCAGUGAAUUACUAUCUGUGUCCAUCAGGAAGUUUGUCCUGUUAACCAAAUGGUUACUGCACUACCAGGGUUACUGGUUUAUUUUCCAGGGAGCUGAUAAAGC | 0.304
UUCAGUCUGUGGGCGGGCGAUUGUCAGUGGGAUUGGUUAAAAAGCUCUUACCAGAGCUGGCUGGCCCACGGCUGGUUUUUCAAACUGAGUGAGCCCCGUAGUGAUGGCCU | 0.405
AAAGAAUACAUAGCCAAAGCAAUGUUACUACCCAUCAUACUGUUUAAAAAUGGAUAGAAAAUAAAAAUAUAAGUUAGUAUGGUUUAAUUCUGAAAAUACAAAUUAUCUUC | 0.642

Sample 3
Target: CCNB3, cyclin fold, Cln2 fusion (human)
Method: yeast growth competition, sequencing
Medium: yeast
Setting: weak parent motif
Baseline: not given
Reading: higher = stronger binding
Starting sequence: RB1 docking peptide (human); PKPLKKLRFDIEG
Change | normalised enrichment score
PKPLKKLRYDIEG [F9Y] | -0.349
PTPLKKLRFDIEG [K2T] | -0.24
PKPLKKLRFDIEW [G13W] | 0.37
PKPLKKLRHDIEG [F9H] | -0.198
PKPLKKLRFDIEH [G13H] | 0.14
PKPLKKLRLDIEG [F9L] | -0.115
PKPLKKLRFDFEG [I11F] | -0.228
PKYLKKLRFDIEG [P3Y] | 0.197
PKPGKKLRFDIEG [L4G] | 0.225
PKPLWKLRFDIEG [K5W] | 0.245

Other studies, line by line
Substance | target | test | system | setting | how to read | quantity | result
PhoQ, residues 284 288 289 292 302 303 TLMATV | PhoP, residues 12 14 15 18 19 LYFRQ (Escherichia coli, UniProt P23836) | Sort-seq, measured: YFP reporter | E. coli | PhoQ-PhoP variant library, added: 10 µM Mg2+ | baseline: high Mg2+ state, higher = stronger signaling | fold induction | 6.47

A few entries again (sample 1):
Strand | log2 enrichment
UCCUGUGCUACACAUCGUAUGUACCGAAUCGGAAAAAAAGGUUUUUUUGGUUUUUUUGGAAAGUAUUAUGUUACGCCGUUCGGAUCUGCA | -2.64
AAUUCUCAUUUCUCGACAUAAAGCCUUGUCUAAAGUGAGAUGUUUUCCAGGUCAUACAUAGGUUUCUCCCUGGGGUAAUUGGAAGUUCUU | -2.66
UCAAGUCCUGUGCUACACAUCGUAUGUACCGAAUCGGGGCCGGGCCGGGCCGGGGAAAGUAUUAUGUUACGCCGUUCGGAUCUGCACUUC | 0.848
AGUCCUGUGCUACACAUCGUAUGUACCGAAUCGGGAAAAGGGAAAAGGGGAAAAGGGGAAAGUAUUAUGUUACGCCGUUCGGAUCUGCAC | 0.176
GCAGGAAGUAAAAACAAAUGGAAAUGCUUCGGAUAGUGGCAGGGGUGGGGGUUGCUAAGGAAAGGGUGGGAUGGGAGUAGGUAAAGAGUU | 1.57
